Results collected from several papers.
Each line is one published result; not all experiments were run side by side.

For `CCCCCCCCCCCCCC(=O)N[C@H]1C(=O)N[C@@H](CN)C(=O)N[C@@H](CO)C(=O)N[C@@H](Cc2ccc(O)cc2)C(=O)O[C@H]1C`, the MIC was 2 µg/mL (Staphylococcus aureus; SH1000; together with: menaquinone-4, molar ratio 0.5).
With `C[N+]1=C2C(c3ccc([N+](=O)[O-])cc3)=[N+]([O-])c3ccccc3N2CCC1` the MIC was 0.25 to 2 µg/mL (Bacteroides spp. and Parabacteroides distasonis).
`C#CCOc1ccc(CN[C@@]2(C)C[C@H](O[C@H]3[C@H](Oc4c5cc6cc4Oc4ccc(cc4Cl)[C@@H](O)[C@@H](NC(=O)[C@@H](CC(C)C)NC)C(=O)N[C@@H](CC(N)=O)C(=O)N[C@H]6C(=O)N[C@H]4C(=O)N[C@H](C(=O)N[C@H](C(=O)NCC(N)=O)c6cc(O)cc(O)c6-c6cc4ccc6O)[C@H](O)c4ccc(c(Cl)c4)O5)O[C@H](CO)[C@@H](O)[C@@H]3O)O[C@@H](C)[C@H]2O)cc1OC` gave an MIC of 64 µg/mL (Enterococcus faecalis; broth microdilution; vancomycin-resistant, tryptic soy broth; 20 to 24 h, 37 °C, 0.002% polysorbate 80).
`COc1ccc(C2=[N+]([O-])c3ccccc3N3CCN=C23)cc1` gave an MIC of 0.06 to 0.125 µg/mL (Bacteroides spp. and Parabacteroides distasonis).
`OB(O)c1cnn(-c2cccc(Cl)c2)c1` has an MIC of greater than 2050 µg/mL (Klebsiella aerogenes; bacterial growth; AmpC overproducer clinical isolate; without cefotaxime).
`CC(=O)N[C@@H](CC(C)C)C(=O)N[C@H]1CSSC[C@@H](C(=O)N2CCC[C@H]2C(N)=O)NC(=O)[C@H]([C@@H](C)O)NC(=O)[C@H](C(C)C)NC(=O)[C@H]([C@@H](C)O)NC(=O)CNC(=O)[C@H](CC(C)C)NC(=O)[C@H](Cc2ccccc2)NC(=O)[C@H](Cc2ccc(O)cc2)NC(=O)[C@H](CC(C)C)NC(=O)[C@H](CCCCN)NC(=O)[C@H](Cc2ccccc2)NC(=O)[C@H](CCCNC(=N)N)NC(=O)[C@H](CCC(N)=O)NC(=O)[C@H](CC(C)C)NC(=O)[C@H](CCCCN)NC(=O)[C@@H]2CCCN2C(=O)[C@H](CCCCN)NC(=O)[C@H](C(C)C)NC(=O)[C@H](CCCCN)NC(=O)[C@H](Cc2ccc(O)cc2)NC(=O)[C@H]([C@@H](C)O)NC1=O` has an MIC of less than 1.25 µM (Corynebacterium glutamicum; broth dilution; CGMCC strain; 24 h).
For `O=[N+]([O-])c1ccc(C2=[N+]([O-])c3ccccc3N3CCCN=C23)cc1`, the MIC was 0.06 to 0.125 µg/mL (Bacteroides spp. and Parabacteroides distasonis).
`CC(=O)N[C@@H](CC(C)C)C(=O)N[C@H]1CSSC[C@@H](C(=O)N2CCC[C@H]2C(N)=O)NC(=O)[C@H]([C@@H](C)O)NC(=O)[C@H](C(C)C)NC(=O)[C@H]([C@@H](C)O)NC(=O)CNC(=O)[C@H](CC(C)C)NC(=O)[C@H](Cc2ccccc2)NC(=O)[C@H](Cc2ccc(O)cc2)NC(=O)[C@H](CC(C)C)NC(=O)[C@H](CCCCN)NC(=O)[C@H](Cc2ccccc2)NC(=O)[C@H](CCCNC(=N)N)NC(=O)[C@H](CCC(N)=O)NC(=O)[C@H](CC(C)C)NC(=O)[C@H](CCCCN)NC(=O)[C@@H]2CCCN2C(=O)[C@H](CCCCN)NC(=O)[C@H](C(C)C)NC(=O)[C@H](CC(N)=O)NC(=O)[C@H](Cc2ccc(O)cc2)NC(=O)[C@H]([C@@H](C)O)NC1=O` gave an MIC of 1.25 to 2.5 µM (Corynebacterium glutamicum; broth dilution; CGMCC strain; 24 h).
The MIC of `[O-][N+]1=C(c2ccccc2)C2=NCCCN2c2ncccc21` is reported as 0.06 to 0.125 µg/mL (Bacteroides spp. and Parabacteroides distasonis).
`CN[C@H](CC(C)C)C(=O)N[C@H]1C(=O)N[C@@H](CC(N)=O)C(=O)N[C@H]2C(=O)N[C@H]3C(=O)N[C@H](C(=O)N[C@H](C(=O)O)c4cc(O)cc(O)c4-c4cc3ccc4O)[C@H](O)c3ccc(c(Cl)c3)Oc3cc2cc(c3O[C@@H]2O[C@H](CO)[C@@H](O)[C@H](O)[C@H]2O[C@H]2C[C@](C)(NCc3ccc(OCc4cn(CCCCC(=O)N[C@H](C(=O)N[C@@H](CCN)C(=O)N[C@H]5CCNC(=O)[C@H]([C@@H](C)O)NC(=O)[C@H](CCN)NC(=O)[C@H](CCN)NC(=O)[C@H](CC(C)C)NC(=O)[C@@H](CC(C)C)NC(=O)[C@H](CCN)NC5=O)[C@@H](C)O)nn4)c(OC)c3)[C@H](O)[C@H](C)O2)Oc2ccc(cc2Cl)[C@H]1O` gave an MIC of 128 µg/mL (Enterococcus faecalis; broth microdilution; vancomycin-resistant, tryptic soy broth; 20 to 24 h, 37 °C, 0.002% polysorbate 80).
With `CC[C@H](C)[C@H](NC(=O)[C@H](CCCCN)NC(=O)[C@H](CCCCN)NC(=O)[C@H](Cc1ccccc1)NC(=O)[C@H](Cc1ccccc1)NC(=O)[C@H](CCCCN)NC(=O)[C@H](CCCCN)NC(=O)[C@H](Cc1ccccc1)NC(=O)[C@H](CCCNC(=N)N)NC(=O)[C@@H](N)CCCCN)C(=O)N[C@@H](CCCCN)C(=O)N[C@@H](CCCCN)C(=O)N[C@@H](CO)C(=O)N[C@H](C(=O)N[C@@H](CCCCN)C(=O)N[C@@H](CCCCN)C(=O)N[C@@H](CCCNC(=N)N)C(=O)N[C@H](C(=O)N[C@@H](CCCCN)C(=O)N[C@@H](CCCCN)C(=O)N[C@@H](CC(C)C)C(=O)N[C@@H](Cc1ccccc1)C(=O)N[C@@H](CCCCN)C(=O)N[C@@H](CCCCN)C(=O)N1CCC[C@H]1C(=O)N[C@@H](CCCNC(=N)N)C(=O)N[C@H](C(=O)N[C@H](C(=O)N1CCC[C@H]1C(=O)N[C@H](C(=O)N[C@@H](CO)C(=O)N[C@H](C(=O)N1CCC[C@H]1C(=O)N[C@@H](Cc1ccccc1)C(=O)O)[C@@H](C)CC)[C@@H](C)CC)[C@@H](C)CC)C(C)C)C(C)C)C(C)C` the MIC was 4 µg/mL (Pseudomonas aeruginosa; P1; 20 h, together with: 200 mM NaCl).
`[O-][N+]1=C(c2ccc(Cl)cc2)C2=NCCCCN2c2ccccc21` has an MIC of 0.5 to 2 µg/mL (Bacteroides fragilis).
`CC(=O)N[C@@H](CC(C)C)C(=O)N[C@H]1CSSC[C@@H](C(=O)N2CCC[C@H]2C(N)=O)NC(=O)[C@H]([C@@H](C)O)NC(=O)[C@H](C(C)C)NC(=O)[C@H]([C@@H](C)O)NC(=O)CNC(=O)[C@H](CC(C)C)NC(=O)[C@H](Cc2ccccc2)NC(=O)[C@H](Cc2ccc(O)cc2)NC(=O)[C@H](CC(C)C)NC(=O)[C@H](CCCCN)NC(=O)[C@H](Cc2ccccc2)NC(=O)[C@H](CCCNC(=N)N)NC(=O)[C@H](CCCCN)NC(=O)[C@H](CC(C)C)NC(=O)[C@H](CCCCN)NC(=O)[C@@H]2CCCN2C(=O)[C@H](CCCCN)NC(=O)[C@H](C(C)C)NC(=O)[C@H](CC(N)=O)NC(=O)[C@H](Cc2ccc(O)cc2)NC(=O)[C@H]([C@@H](C)O)NC1=O` has an MIC of less than 1.25 µM (Corynebacterium glutamicum; broth dilution; CGMCC strain; 24 h).
`CC(C)CCCCCCCCC/C=C/C(=O)N[C@@H](CC(N)=O)C(=O)N[C@H]1CNC(=O)[C@@H]2CCCN2C(=O)[C@H](C(C)C)NC(=O)[C@@H](CN)NC(=O)CNC(=O)[C@H](CC(=O)O)NC(=O)CNC(=O)[C@H](CC(=O)O)NC(=O)[C@H](CC(=O)O)NC(=O)[C@H]2CCCCN2C1=O` gave an MIC of 8 µg/mL (Enterococcus; broth microdilution; VRE 155, Mueller-Hinton broth, Mg2+ 10 mg/L; 16 h, together with: Ca2+ 1.0 mM).
`O=C(c1ccccc1O)c1[nH]c(Cl)c(Cl)c1-n1c(C(=O)c2ccccc2O)cc(Cl)c1Cl` gave an MIC of greater than 64 µM (Klebsiella aerogenes; microbial growth; ATCC35029).
For `CC(C)CCCCCCCCC/C=C/C(=O)N[C@@H](CC(=O)O)C(=O)N[C@H]1CNC(=O)[C@@H]2CCCN2C(=O)[C@H](C(C)C)NC(=O)[C@@H](CN)NC(=O)CNC(=O)[C@H](CC(=O)O)NC(=O)CNC(=O)[C@H](CC(=O)O)NC(=O)[C@H](CC(=O)O)NC(=O)[C@H]2CCCCN2C1=O`, the MIC was 8 µg/mL (Enterococcus; broth microdilution; VRE 155, Mueller-Hinton broth, Mg2+ 10 mg/L; 16 h, together with: Ca2+ 1.0 mM).
The MIC of `CC(=O)N[C@@H](CC(C)C)C(=O)N[C@H]1CSSC[C@@H](C(=O)N2CCC[C@H]2C(N)=O)NC(=O)[C@H]([C@@H](C)O)NC(=O)[C@H](C(C)C)NC(=O)[C@H]([C@@H](C)O)NC(=O)[C@H](CCCCN)NC(=O)[C@H](CC(C)C)NC(=O)[C@H](Cc2ccccc2)NC(=O)[C@H](Cc2ccc(O)cc2)NC(=O)[C@H](CC(C)C)NC(=O)[C@H](CCCCN)NC(=O)[C@H](Cc2ccccc2)NC(=O)[C@H](CCCNC(=N)N)NC(=O)[C@H](CCC(N)=O)NC(=O)[C@H](CC(C)C)NC(=O)[C@H](CCCCN)NC(=O)[C@@H]2CCCN2C(=O)[C@H](CCCCN)NC(=O)[C@H](C(C)C)NC(=O)[C@H](CC(N)=O)NC(=O)[C@H](Cc2ccc(O)cc2)NC(=O)[C@H]([C@@H](C)O)NC1=O` is reported as 2.5 to 5 µM (Shigella flexneri; broth dilution; CGMCC strain; 24 h).
`C[N+]1=C2C(c3ccc(Cl)cc3)=[N+]([O-])c3ccccc3N2CCC1` gave an MIC of 2 to 8 µg/mL (Bacteroides spp. and Parabacteroides distasonis).
The MIC of `CC(=O)N[C@@H](CC(C)C)C(=O)N[C@H]1CSSC[C@@H](C(=O)N2CCC[C@H]2C(N)=O)NC(=O)[C@H](CCCCN)NC(=O)[C@H](C(C)C)NC(=O)[C@H](CCCCN)NC(=O)CNC(=O)[C@H](CC(C)C)NC(=O)[C@H](Cc2ccccc2)NC(=O)[C@H](CCCCN)NC(=O)[C@H](CC(C)C)NC(=O)[C@H](CCC(=O)O)NC(=O)[C@H](Cc2ccccc2)NC(=O)[C@H](CCCNC(=N)N)NC(=O)[C@H](CCCCN)NC(=O)[C@H](CC(C)C)NC(=O)[C@H](CC(=O)O)NC(=O)[C@@H]2CCCN2C(=O)[C@H](CCCCN)NC(=O)[C@H](C(C)C)NC(=O)[C@H](CCCCN)NC(=O)[C@H](CCCCN)NC(=O)[C@H](CCCCN)NC1=O` is reported as greater than 40 µM (Vibrio alginolyticus; broth dilution; 24 h).
`CC1(C)C(NC(=O)C(=NOC2(C(=O)O)CC2)c2csc(N)n2)C(=O)N1OS(=O)(=O)O` (stereo not drawn) gave an MIC of 0.25 µg/mL (Klebsiella pneumoniae; agar dilution; 09-20, NDM-1).
With `CCCCCCCC(=O)NCCCC[C@H](NC(=O)CCCCCCC)C(=O)N[C@@H](CCCCNC(=O)CCCCCCC)C(=O)NCC(=O)NCC(=O)NCC(=O)N[C@@H](CS)C(=O)N[C@@H](CCCNC(=N)N)C(=O)N[C@@H](CCCCN)C(=O)N1CCC[C@H]1C(=O)N[C@@H](CS)C(=O)N[C@@H](CCCNC(=N)N)C(=O)N[C@@H](CCCCN)C(=O)N1CCC[C@H]1C(=O)N[C@@H](CS)C(=O)N[C@@H](CCCNC(=N)N)C(=O)N[C@@H](CCCCN)C(=O)N1CCC[C@H]1C(=O)N[C@@H](CS)C(=O)N[C@@H](CCCNC(=N)N)C(=O)N[C@@H](CCCCN)C(=O)N1CCC[C@H]1C(N)=O` the MIC was 16 µM (Candida parapsilosis; broth microdilution; CGMCC 2.399, RPMI-1640; 48 h, 30 °C).
